Measurements gathered from unrelated publications.
Protocols differ between the studies behind these lines. Several values in a cell are separate wells, animals, samples, runs or records. ± marks the error that the study gave.

For Cl.Cl.NCCNS(=O)(=O)c1ccc(Cl)c2ccncc12, “relative cell number” read 98.8% (SK-OV-3; ATP; 3D gellan gum culture; 10 µM, 4 days; baseline: untreated).
Cl.Cl.N=C(NCCCCCCNC(=N)NC(=N)Nc1ccc(Cl)cc1)NC(=N)Nc1ccc(Cl)cc1 has an inhibition of 88.2% (BT-16; cell viability, MTT; 10 µM, 72 h).
Cn1cc(Nc2nccc(-c3ccc4c(c3)CN(C3COC3)CC[C@H]4NC(=O)c3cn(C(C)(C)C)nn3)n2)cn1 — result for “pathway activation z-score”: 2 (mouse splenic B cells; item: Histamine degradation; 30 mg/kg, IgD-activated in vivo; baseline: vehicle, direction not given).
For Cn1cc(-c2ccc(-c3cncc(Cl)c3N3CCC4(CCNC4=O)CC3)cc2)cn1, “log2 fold change” read 1.85 (COLO 205; gene expression, microarray, item: TNFRSF12A (FN14) mRNA; concentration not given, 6 h; baseline: untreated cells).
CCc1cnc(N2CCC(c3nc(COc4ccc(-n5cnnn5)cc4)cs3)CC2)nc1: “normalized enrichment score” 1.08 (HEK-293T; RNA-seq GSEA, item: HALLMARK_IL2_STAT5_SIGNALING; concentration not given; direction not given).
CNC(=O)c1ccc2c(c1)ncn2-c1ccc(CC(=O)OC(C)(C)C)cc1: necroptosis inhibition “inactive” (mouse BMDM, peritoneal macrophages, 3T3SA; ATP-based viability; concentration not given).
CC(C)c1nc(CN(C)C(=O)N[C@H](C(=O)N[C@@H](Cc2ccccc2)C[C@H](O)[C@H](Cc2ccccc2)NC(=O)OCc2cncs2)C(C)C)cs1 has a maximal efficacy of 97% (ΔE-expressing cells; ΔE mislocalization, high-content imaging).
For CCn1cc(-c2cc(Cn3ccnc3)cc3c2CCN([C@H](c2cc(OC)ccn2)C2CC2)C3=O)c(C(F)(F)F)n1, the EC50 was 0.0349 µM (Granta-519; cell growth, inhibitor; 120 h).
CCCCCCCCCCCCCCCC[N+](C)(C)CCN(Cc1ccc(OC)cc1)c1ncccn1 has an inhibition of 94.8% (BT-16; cell viability, MTT; 10 µM, 72 h).
For CSc1cc(Oc2ccnc3[nH]c(=O)cnc23)ccc1NC(=O)Nc1cc(C(C)(C)C)nn1-c1ccccc1, the phospho ratio was 0.92 (patient-derived cell line clone B; RPPA, item: phosphorylated IRS-1; human; 1 µM, 4 h; baseline: DMSO).
Cc1cc(Nc2ncc(Cl)c(Nc3ccccc3S(=O)(=O)C(C)C)n2)c(OC(C)C)cc1C1CCNCC1: “log2 fold change” -3.72 (CLB-BAR; phosphoproteomics LC-MS/MS, item: EEF2K phosphorylation; 200 nM, 60 min; baseline: untreated).
The mRNA level of C=CC(=O)Nc1cc(Nc2nccc(-c3cn(C)c4ccccc34)n2)c(OC)cc1N(C)CCN(C)C is reported as roughly 1.5 fold (PC-9; item: PIK3CA; 8 µM, 24 h; baseline: control).
With O=C(/C=C/C=C/C=C/C1CCCCC1)NC1=C[C@@](O)(/C=C/C=C/C=C/C(=O)NC2=C(O)CCC2=O)[C@@H]2O[C@@H]2C1=O the GI50 was 19.5 µM (LoVo; cell growth, CellTiter-Glo; 78 h).
With Nc1ncnc2c1ncn2[C@@H]1O[C@H](CO)[C@@H](O)[C@H]1O the viability was 82.3 a.u. and 76.8 a.u. and 84.2 a.u. (unstimulated human T cells; 3.16 µM, 72 h; higher = more viable cells).
CCc1cccc(CC)c1NC(=O)N1Cc2n[nH]c(NC(=O)c3ccc(N4CCN(C)CC4)cc3)c2C1 gave an inhibition of 89.5% (BT-16; cell viability, MTT; 10 µM, 72 h).
For COc1cnc2cccc(N3CCc4c(cc(Cn5ccnc5C)cc4-c4cn(C)nc4C(F)(F)F)C3=O)c2c1, the EC50 was greater than 30 µM (MSTO-211H; cell growth, inhibitor; 120 h).
With CCN(CCO)CCCC(C)Nc1ccnc2cc(Cl)ccc12 (centres unmarked) the inhibition was 31 ± 21% (human PBMC; qRT-PCR, item: IFI27 mRNA; 1000 nM, together with: ssRNA).
The Emax of FC(F)(F)c1nc2c(-c3ccc(Cl)cc3)ccnc2[nH]1 is reported as 6 to 22% (L6 myoblasts; oxygen consumption rate, Seahorse XF; baseline: BAM15 maximal respiration).
CCCCN1C[C@H](O)[C@@H](O)[C@@H](O)[C@H]1CO has an IC50 of 26 µM (sample BA patient fibroblasts; Gb3 level lowering, LC-MS/MS, item: Gb3 d18:1/20:0; 216 h).
Cc1cccc(-c2[nH]c(CNc3ccccc3F)nc2-c2ccc3ncnn3c2)n1 gave a relative viability of 0.171 (bone marrow CD138+ myeloma cells; XTT; human; 1 µM; baseline: untreated).
